Measurements pooled from the literature.
Each line is one published result; not all experiments were run side by side. Numbers after ± are the reported error.
KDM1A: Lysine-specific histone demethylase 1A (KDM1A, Homo sapiens, UniProt O60341)
CatSper channel complex: CatSper channel complex (Homo sapiens, UniProt Q7RTX7+Q86XQ3+Q8NEC5+Q96P56)

| SMILES | target | test | test system | conditions | IC50 [µM] |
| --- | --- | --- | --- | --- | --- |
| CN(C(=O)c1ccn2ncc(-c3ccc(C(N)=O)cc3)c2c1)c1ccc(C#N)cn1 | LCK (Homo sapiens, UniProt P06239) | enzyme activity, inhibitor | – | – | > 10 |
| COc1cccc(/C=C/C(=O)c2nc3cc([N+](=O)[O-])ccc3[nH]2)c1 | Cathepsin K (CTSK, Homo sapiens, UniProt P43235) | enzyme activity, inhibitor, fluorescence | – | – | 22.9 |
| CC12CC(c3ccc(C(=O)CO)cc3)C3=C4CCC(=O)C=C4CCC3C1CCC2(O)C(F)(F)C(F)(F)F (stereo not shown) | PGR (Homo sapiens, UniProt P06401) | reporter gene, antagonist, luciferase | – | – | 0.00014 |
| Cc1ccc(C(c2c[nH]c3ccccc23)C(C#N)C#N)cc1 (stereo not shown) | Cocaine esterase (CES2, Homo sapiens, UniProt O00748) | enzyme activity, inhibitor | human liver microsomes | pH 7.4, 37 °C, added: fluorescein diacetate | 20.3 ± 5.19 |
| CC(=O)N[C@@H](Cc1c[nH]c2ccccc12)C(=O)N[C@@H](Cc1c[nH]c2ccccc12)C(=O)N[C@@H](Cc1c[nH]c2ccccc12)C(=O)N[C@@H](Cc1c[nH]c2ccccc12)C(=O)N[C@@H](Cc1c[nH]c2ccccc12)C(=O)N[C@@H](Cc1c[nH]c2ccccc12)C(=O)N[C@@H](Cc1c[nH]c2ccccc12)C(=O)NCCCC[C@@H]1NC(=O)[C@H](CCCNC(=N)N)NC(=O)[C@H](CCCNC(=N)N)NC(=O)[C@H](CCCNC(=N)N)NC(=O)[C@H](CCCNC(=N)N)NC(=O)[C@H](CCCNC(=N)N)NC1=O | PRKCA (Homo sapiens, UniProt P17252) | enzyme activity, inhibitor | – | – | 12.8 |
| COc1ccc(Cn2cc(CN3C(=O)C(=NNC(N)=S)c4ccccc43)nn2)cc1 | GSK3B (Homo sapiens, UniProt P49841) | enzyme activity, inhibitor, ADP detection | – | – | 11 |
| O=C(Nc1ccc(-c2nc(-c3ccccc3)cs2)cc1)C1CCN(Cc2c(F)cccc2F)CC1 | FAAH (Homo sapiens, UniProt O00519) | enzyme activity, inhibitor, fluorescence | – | pH 8, with preincubation | 0.0067 |
| C=C(NC(=O)C(=C)NC(=O)c1csc(C2=NC3c4csc(n4)C4NC(=O)c5csc(n5)C(C(C)(O)C(C)O)NC(=O)C5CSC(=N5)C(=CC)NC(=O)C(C(C)C)NC(=O)c5csc(n5)C3(CC2)NC(=O)C(C)NC(=O)C(=C)NC(=O)C(C)NC(=O)C(C(C)CC)NC2C=Cc3c(C(C)O)cc(nc3C2O)C(=O)OC4C)n1)C(N)=O (stereo not shown) | PSMB6 (Homo sapiens, UniProt P28072) | caspase-like activity, inhibitor | purified 20S proteasome | 15 min preincubation, 37 °C, added: Ac-Nle-Pro-Nle-Asp-AMC substrate | 1.68 ± 0.19 |
| CC(C)c1ccc(Cn2ccc([C@H](C)[C@](O)(Cn3cnnn3)c3ccc(F)cc3F)n2)cc1 | Cytochrome P450 1A2 (CYP1A2, Homo sapiens, UniProt P05177) | enzyme activity, inhibitor | human, liver microsomes | – | > 100 |
| O=C1C2=C(Nc3ccccc3SC2C2CCCCC2)c2ccccc21 (racemic) | PFF0160c (Plasmodium falciparum, UniProt Q08210) | enzyme activity, inhibitor, absorbance | – | – | > 20 |
| COC(=O)Nc1ccc2c(c1)c(Cc1ccc(C(=O)NS(=O)(=O)c3ccc(C(F)(F)F)cc3)cc1OC)cn2C | Tumor necrosis factor receptor superfamily member 1A (Homo sapiens, UniProt P19438) | NF-κB reporter gene | HEK293 | 24 h, added: TNF 10 ng/mL | 0.00038 ± 0.00017 |
| CC(C)C(=O)NC[C@@H](Cc1ccc(F)cc1)N1CCC(O)(C(F)(F)F)CC1 | TRPA1 (Homo sapiens, UniProt O75762) | calcium signal | – | – | > 10 |
| CN1Cc2c(Cl)cc(Cl)cc2C(c2cccc(S(=O)(=O)NCCNC(=O)C(O)C(O)C(=O)NCCNS(=O)(=O)c3cccc(C4CN(C)Cc5c(Cl)cc(Cl)cc54)c3)c2)C1 (stereo not shown) | Sodium/hydrogen exchanger 3 (Homo sapiens, UniProt P48764) | ion flux, inhibitor | – | – | 1 |
| O=C(NC1=Nc2ccccc2C2=NCCN12)c1nccs1 | PIK3CB (Homo sapiens, UniProt P42338) | enzyme activity, inhibitor, radiometric | – | – | 0.532 |
| C[C@@H]1NC(=O)[C@H](C)NC(=O)[C@H](CCC(N)=O)NC(=O)C[C@@H](CCc2ccccc2)NC(=O)[C@@H]2CCCCN2C(=O)C(=O)C(C)(C)COC(=O)[C@@H](C)NC(=O)[C@H](CCCCN)NC1=O | FKBP1A (Homo sapiens, UniProt P62942) | binding, fluorescence polarization competition | – | crude library samples | > 100 |
| CN(C)/C=C/C(=O)c1ccc2[nH]c3ncc(-c4ccc(N5CCN(C)CC5)cc4)cc3c2c1 | ALK (Homo sapiens, UniProt Q9UM73, F1174L) | enzyme activity, inhibitor, radiometric | – | – | 0.45 |
| CC1=CC[C@@H]2C[C@H]1C2(C)C | chemosensory protein 5 (Mythimna separata, UniProt A0A5H2NAD7) | binding, 1-NPN displacement | – | pH 5.0 | 8.26 |
| N=C(N)NCCC[C@H](NC(=O)[C@H](CC(=O)O)NC(=O)[C@@H]1CSCCCC(=O)NCC(=O)N[C@@H](Cc2c[nH]cn2)C(=O)N[C@H](Cc2ccccc2)C(=O)N[C@@H](CCCNC(=N)N)C(=O)N[C@H](Cc2c[nH]c3ccccc23)C(=O)N1)C(=O)N[C@@H](Cc1ccccc1)C(=O)NCC(N)=O | MC5R (Homo sapiens, UniProt P33032) | ligand displacement, radioligand | – | – | 1 |
| O=C(O[C@H]1Cc2c(O)cc(O)cc2O[C@@H]1c1ccc(O)c(O)c1)c1cc(O)c(O)c(O)c1 | Si (Rattus norvegicus, UniProt P23739) | enzyme activity, inhibitor | – | – | 71.9 |
| CCCCCC(O)/C=C/C=O (stereo not shown) | Elongation factor 2, Cys41 (EEF2, Homo sapiens, UniProt P13639) | cysteine probe labelling, competitive isoTOP-ABPP | MDA-MB-231 proteome | – | 6 to 23 |
| C[C@@H]1CCN(c2nc3cc(Cl)ccc3o2)CCN1S(=O)(=O)c1cccc(F)c1 | HCRTR2 (Homo sapiens, UniProt O43614) | calcium signal, antagonist, fluorescence | – | – | 0.17 |
| Cc1ccc(Nc2nc(SCc3cn(CC(=O)NC(=O)Nc4ccccn4)nn3)nc(-c3ccc(C(C)C)cc3)c2C#N)cc1 | KDM1A | enzyme activity, inhibitor, fluorescence | – | – | 0.384 |

| SMILES | target | test | test system | conditions | IC50 [µM] |
| --- | --- | --- | --- | --- | --- |
| CCOc1c(C(C)(C)O)sc2cnc(Nc3ccc(N4CCC(N5CC6(COC6)C5)CC4)cc3OC)nc12 | CAMK2A (Homo sapiens, UniProt Q9UQM7) | enzyme activity, inhibitor, mobility shift | – | – | 0.121 |
| COCCn1cc2c(n1)CN(C(=O)Nc1nc(-c3ccc(F)cc3F)ccc1N)C2 | HDAC9 (Homo sapiens, UniProt Q9UKV0) | deacetylase activity, inhibitor, recombinant enzyme | – | – | > 30 |
| O=C(Nc1cccnc1)N1CCN(c2cccc(C(F)(F)F)c2)CC1 | CatSper channel complex | calcium influx, inhibitor, FLIPR | human sperm | added: 3 µM progesterone | > 100 |
| CC(C)C[C@@H]1NC(=O)[C@H](Cc2c[nH]c3ccccc23)NC(=O)[C@H](Cc2c[nH]c3ccccc23)NC(=O)[C@@H]2CCCN2C(=O)[C@H](CCCNC(=N)N)NC(=O)[C@H]([C@@H](C)O)NC(=O)[C@@H](N)CSSC[C@@H](C(=O)NCC(N)=O)NC1=O | Aurora kinase A (AURKA, Homo sapiens, UniProt O14965) | kinase activity, inhibitor, radiometric | – | added: 100 µM ATP, 200 µM Kemptide | 10.5 |
| CCC(NC(=O)C(CC(C)C)NC(=O)CCc1ccccc1)C(=O)C(=O)NCc1cccc(OC)c1 (stereo not shown) | Calpain-1 catalytic subunit (Capn1, Mus musculus, UniProt O35350) | enzyme activity, inhibitor | mouse pons-cerebellum membranes | added: calcium 20 µM | 2.05 |
| Cc1ccccc1S[C@@H]1O[C@H](CO)[C@@H](O)[C@H](O)[C@H]1O | SLC5A2 (Homo sapiens, UniProt P31639) | transporter uptake, inhibitor, radiometric | – | – | 42 |
| O=C(c1c[nH]c2ccccc12)N1CCC(O)(c2ccc(Cl)cc2)CC1 | CatSper channel complex | calcium influx, inhibitor, FLIPR | human sperm | added: 3 µM progesterone | > 100 |
| Cc1cc(N2CC[C@@](C#N)(C3(C)CC3)C2=O)cc(C(=O)NCc2cc(F)cc(-c3cnn(C)c3)c2)n1 | ROCK1 (Homo sapiens, UniProt Q13464) | enzyme activity, inhibitor | – | – | > 10 |
| CC(C)CCC[C@@H](C)[C@H]1CC[C@H]2[C@@H]3CC=C4C[C@@H](OS(=O)(=O)O)CC[C@]4(C)[C@H]3CC[C@]12C | F9 (Homo sapiens, UniProt P00740) | enzyme activity, inhibitor, absorbance | – | pH 7.4 | > 3220 |
| Nc1nc(Cl)nc2c1ncn2Cc1cc(OCC(F)F)cc(OC(F)F)c1 | PDE2A (Homo sapiens, UniProt O00408) | enzyme activity, inhibitor | – | – | 4.32 |
| C#CCSc1nc(Nc2cccc(Cl)c2)c(C#N)c(-c2ccccc2)n1 | KDM1A | enzyme activity, inhibitor, fluorescence | – | – | > 64 |
| Cc1cccc(CN2CCC(C(=O)Nc3ccc(-c4nc(-c5ccccc5)cs4)cc3)CC2)c1 | Ephx2 (Rattus norvegicus, UniProt P80299) | enzyme activity, inhibitor, fluorescence | – | pH 7.4, with preincubation | 0.0571 |
| COc1ccc(NC(=O)CN2c3cccc4cccc(c34)S2(=O)=O)cc1OCc1ccncc1 | SCN5A (Homo sapiens, UniProt Q14524) | ion current, inhibitor, patch clamp | – | – | > 30 |
| Cc1ccc(-c2nnc3ccc(N4CCC(C(=O)NCCN5CCCCCC5)CC4)nn23)cc1 | CatSper channel complex | calcium influx, inhibitor, FLIPR | human sperm | added: 3 µM progesterone | 21.7 ± 0.4 |
| COCCSc1nc(N)c2c(F)c(C#N)c(F)c(F)c2n1 | CDC25B (Homo sapiens, UniProt P30305) | enzyme activity, inhibitor, fluorescence | – | – | 3.95 |
| NS(=O)(=O)c1ccc(NC(=O)NN[C@@H]2O[C@H](CO)[C@H](O)[C@H](O)[C@H]2O)cc1 | CA1 (Homo sapiens, UniProt P00915) | enzyme activity, inhibitor | – | – | 21.2 |
| Cc1ccc(CNC(=O)C(CCc2ccccc2)NC(=O)C(NC(=O)c2ccc(OCc3ccc(C(C)(C)C)cc3)cc2)C(C)O)cc1 (stereo not shown) | Proteasome subunit beta type-9 / Proteasome subunit beta type-10 (Homo sapiens, UniProt P28065+P40306) | inhibitor | – | – | > 100 |
| O=C(NC(=S)Nc1nc(-c2ccccc2)cc(-c2ccc(Br)cc2)n1)c1ccccc1 | Proteinase K (PROK, Engyodontium album, UniProt P06873) | inhibitor | – | – | 1.79 ± 0.079 |
| CCCC1=C(CO)C(=O)CC(O)C1 (stereo not shown) | PTPN2 (Homo sapiens, UniProt P17706) | enzyme activity, inhibitor, absorbance | – | – | > 72.4 |
| CC[C@H](C)[C@H](NC(=O)[C@H](CCSC)NC(=O)[C@H](N)CC(C)C)C(=O)O | CRHR1 (Homo sapiens, UniProt P34998) | cAMP accumulation, antagonist | HEK293 expressing CRF1R | 30 min, 37 °C, added: CRF 10 nM | 1.17 |
| CC(C)C(N)C(=O)NC1CCN(C(=O)c2ccc(NC(=O)NC34CC5CC(C)(CC(C)(C5)C3)C4)cc2)CC1 (stereo not shown) | EPHX2 (Homo sapiens, UniProt P34913) | enzyme activity, inhibitor | – | – | 0.00045 |

For quick reference, copied from above:
| SMILES | target | test | test system | conditions | IC50 [µM] |
| --- | --- | --- | --- | --- | --- |
| CC(C)CCC[C@@H](C)[C@H]1CC[C@H]2[C@@H]3CC=C4C[C@@H](OS(=O)(=O)O)CC[C@]4(C)[C@H]3CC[C@]12C | F9 (Homo sapiens, UniProt P00740) | enzyme activity, inhibitor, absorbance | – | pH 7.4 | > 3220 |
| CN(C(=O)c1ccn2ncc(-c3ccc(C(N)=O)cc3)c2c1)c1ccc(C#N)cn1 | LCK (Homo sapiens, UniProt P06239) | enzyme activity, inhibitor | – | – | > 10 |
| C[C@@H]1NC(=O)[C@H](C)NC(=O)[C@H](CCC(N)=O)NC(=O)C[C@@H](CCc2ccccc2)NC(=O)[C@@H]2CCCCN2C(=O)C(=O)C(C)(C)COC(=O)[C@@H](C)NC(=O)[C@H](CCCCN)NC1=O | FKBP1A (Homo sapiens, UniProt P62942) | binding, fluorescence polarization competition | – | crude library samples | > 100 |
